Experimental data collected from several papers.
A part holds a random share of what one study measured.
UniProt Q59H18, sequence (whole entry, looked up): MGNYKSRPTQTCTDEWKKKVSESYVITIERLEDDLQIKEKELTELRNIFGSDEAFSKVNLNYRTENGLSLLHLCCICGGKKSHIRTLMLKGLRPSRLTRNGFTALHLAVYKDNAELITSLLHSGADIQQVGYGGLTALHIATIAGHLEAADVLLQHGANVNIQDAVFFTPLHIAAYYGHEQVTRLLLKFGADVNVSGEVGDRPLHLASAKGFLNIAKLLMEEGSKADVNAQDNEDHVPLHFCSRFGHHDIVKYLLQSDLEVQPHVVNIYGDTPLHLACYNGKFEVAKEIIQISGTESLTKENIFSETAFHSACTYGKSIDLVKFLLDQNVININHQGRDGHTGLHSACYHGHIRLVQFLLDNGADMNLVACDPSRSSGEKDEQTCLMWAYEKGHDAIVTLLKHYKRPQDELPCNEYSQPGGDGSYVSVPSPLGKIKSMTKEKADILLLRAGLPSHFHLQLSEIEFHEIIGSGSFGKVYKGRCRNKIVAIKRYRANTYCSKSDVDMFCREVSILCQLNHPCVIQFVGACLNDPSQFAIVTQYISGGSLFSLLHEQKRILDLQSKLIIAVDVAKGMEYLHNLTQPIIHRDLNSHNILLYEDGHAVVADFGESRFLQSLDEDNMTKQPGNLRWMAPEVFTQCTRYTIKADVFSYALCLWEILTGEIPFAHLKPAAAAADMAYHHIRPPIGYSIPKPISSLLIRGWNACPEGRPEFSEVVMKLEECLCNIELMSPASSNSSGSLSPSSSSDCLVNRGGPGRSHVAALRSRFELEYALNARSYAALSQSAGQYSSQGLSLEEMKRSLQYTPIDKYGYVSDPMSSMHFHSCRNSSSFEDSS
UniProt P06241, sequence (whole entry, looked up): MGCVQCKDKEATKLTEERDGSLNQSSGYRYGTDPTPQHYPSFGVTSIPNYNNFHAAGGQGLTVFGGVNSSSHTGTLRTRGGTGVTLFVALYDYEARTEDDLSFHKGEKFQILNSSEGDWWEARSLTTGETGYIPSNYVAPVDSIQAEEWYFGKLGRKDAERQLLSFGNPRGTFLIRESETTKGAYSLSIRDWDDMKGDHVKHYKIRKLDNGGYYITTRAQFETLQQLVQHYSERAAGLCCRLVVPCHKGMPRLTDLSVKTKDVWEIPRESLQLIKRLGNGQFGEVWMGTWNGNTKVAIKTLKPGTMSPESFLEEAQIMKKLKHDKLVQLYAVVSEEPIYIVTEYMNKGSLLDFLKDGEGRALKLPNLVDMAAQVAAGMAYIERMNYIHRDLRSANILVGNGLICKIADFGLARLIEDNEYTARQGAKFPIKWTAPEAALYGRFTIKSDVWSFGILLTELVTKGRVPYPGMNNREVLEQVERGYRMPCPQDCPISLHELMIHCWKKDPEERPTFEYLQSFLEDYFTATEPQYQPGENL
UniProt P50750, sequence (whole entry, looked up): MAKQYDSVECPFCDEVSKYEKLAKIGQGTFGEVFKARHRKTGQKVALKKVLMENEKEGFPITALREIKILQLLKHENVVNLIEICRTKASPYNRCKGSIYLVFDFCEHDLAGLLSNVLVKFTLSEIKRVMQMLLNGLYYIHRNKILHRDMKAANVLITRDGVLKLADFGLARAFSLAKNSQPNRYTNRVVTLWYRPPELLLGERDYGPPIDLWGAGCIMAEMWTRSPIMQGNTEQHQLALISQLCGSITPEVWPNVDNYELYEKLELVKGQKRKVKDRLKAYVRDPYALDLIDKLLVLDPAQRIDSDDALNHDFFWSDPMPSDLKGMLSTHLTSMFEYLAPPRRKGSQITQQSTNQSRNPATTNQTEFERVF
UniProt Q2M2I8, sequence (whole entry, looked up): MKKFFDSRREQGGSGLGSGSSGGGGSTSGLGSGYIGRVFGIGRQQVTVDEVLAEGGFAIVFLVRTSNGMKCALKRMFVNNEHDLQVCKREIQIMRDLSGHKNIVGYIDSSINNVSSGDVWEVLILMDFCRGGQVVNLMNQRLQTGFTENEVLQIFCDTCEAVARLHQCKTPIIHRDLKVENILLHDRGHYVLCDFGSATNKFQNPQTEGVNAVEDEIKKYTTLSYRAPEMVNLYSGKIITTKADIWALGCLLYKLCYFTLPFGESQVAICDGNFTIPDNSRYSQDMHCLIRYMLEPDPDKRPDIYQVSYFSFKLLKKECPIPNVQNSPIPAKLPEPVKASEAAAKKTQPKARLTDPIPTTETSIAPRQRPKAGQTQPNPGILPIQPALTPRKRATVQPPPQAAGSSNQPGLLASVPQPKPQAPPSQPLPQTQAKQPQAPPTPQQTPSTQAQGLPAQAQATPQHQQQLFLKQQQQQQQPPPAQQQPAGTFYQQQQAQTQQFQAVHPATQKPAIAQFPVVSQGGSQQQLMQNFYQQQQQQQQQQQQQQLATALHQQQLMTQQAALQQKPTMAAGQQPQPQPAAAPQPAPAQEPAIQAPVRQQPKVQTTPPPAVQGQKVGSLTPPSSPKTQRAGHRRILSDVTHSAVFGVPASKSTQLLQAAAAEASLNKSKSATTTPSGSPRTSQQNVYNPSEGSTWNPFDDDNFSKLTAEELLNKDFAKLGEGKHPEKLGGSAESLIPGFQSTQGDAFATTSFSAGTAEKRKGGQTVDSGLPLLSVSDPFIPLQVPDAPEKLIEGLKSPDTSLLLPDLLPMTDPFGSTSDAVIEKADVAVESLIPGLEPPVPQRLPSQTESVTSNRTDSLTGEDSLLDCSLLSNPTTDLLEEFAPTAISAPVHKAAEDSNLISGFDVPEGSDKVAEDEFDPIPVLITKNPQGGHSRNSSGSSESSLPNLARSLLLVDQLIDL
UniProt O95819, sequence (whole entry, looked up): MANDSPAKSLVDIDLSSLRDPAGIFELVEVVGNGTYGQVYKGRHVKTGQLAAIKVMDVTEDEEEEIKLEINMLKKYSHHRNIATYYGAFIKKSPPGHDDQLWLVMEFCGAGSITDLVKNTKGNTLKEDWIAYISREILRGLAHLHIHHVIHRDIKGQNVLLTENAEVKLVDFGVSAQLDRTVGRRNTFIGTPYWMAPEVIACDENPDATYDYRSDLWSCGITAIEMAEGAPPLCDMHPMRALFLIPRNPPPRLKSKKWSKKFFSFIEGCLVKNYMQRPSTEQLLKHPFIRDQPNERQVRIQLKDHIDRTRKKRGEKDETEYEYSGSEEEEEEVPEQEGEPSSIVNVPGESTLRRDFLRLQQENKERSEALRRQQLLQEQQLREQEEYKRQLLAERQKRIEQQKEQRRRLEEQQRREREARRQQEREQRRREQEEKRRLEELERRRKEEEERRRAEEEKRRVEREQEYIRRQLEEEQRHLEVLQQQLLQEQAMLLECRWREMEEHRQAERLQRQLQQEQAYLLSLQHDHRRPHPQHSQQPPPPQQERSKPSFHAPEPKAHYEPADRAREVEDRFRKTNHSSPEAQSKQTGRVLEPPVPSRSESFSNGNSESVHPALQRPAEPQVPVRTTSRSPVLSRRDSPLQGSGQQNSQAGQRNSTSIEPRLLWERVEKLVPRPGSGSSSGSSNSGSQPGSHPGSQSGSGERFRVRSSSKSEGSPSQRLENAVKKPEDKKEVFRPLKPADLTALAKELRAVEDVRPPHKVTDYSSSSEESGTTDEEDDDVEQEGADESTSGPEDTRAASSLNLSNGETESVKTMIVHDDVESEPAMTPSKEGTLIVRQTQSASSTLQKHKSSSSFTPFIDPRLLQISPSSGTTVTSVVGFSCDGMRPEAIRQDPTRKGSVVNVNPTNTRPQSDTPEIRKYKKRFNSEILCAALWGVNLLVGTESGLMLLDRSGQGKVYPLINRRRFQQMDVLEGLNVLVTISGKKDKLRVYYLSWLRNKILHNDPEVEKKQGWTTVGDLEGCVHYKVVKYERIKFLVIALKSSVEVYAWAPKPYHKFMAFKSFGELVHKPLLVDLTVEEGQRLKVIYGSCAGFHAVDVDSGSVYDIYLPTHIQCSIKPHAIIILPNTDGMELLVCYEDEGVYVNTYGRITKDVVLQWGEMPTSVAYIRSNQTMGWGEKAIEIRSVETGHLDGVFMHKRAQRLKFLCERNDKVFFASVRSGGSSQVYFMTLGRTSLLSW
UniProt P53778, sequence (whole entry, looked up): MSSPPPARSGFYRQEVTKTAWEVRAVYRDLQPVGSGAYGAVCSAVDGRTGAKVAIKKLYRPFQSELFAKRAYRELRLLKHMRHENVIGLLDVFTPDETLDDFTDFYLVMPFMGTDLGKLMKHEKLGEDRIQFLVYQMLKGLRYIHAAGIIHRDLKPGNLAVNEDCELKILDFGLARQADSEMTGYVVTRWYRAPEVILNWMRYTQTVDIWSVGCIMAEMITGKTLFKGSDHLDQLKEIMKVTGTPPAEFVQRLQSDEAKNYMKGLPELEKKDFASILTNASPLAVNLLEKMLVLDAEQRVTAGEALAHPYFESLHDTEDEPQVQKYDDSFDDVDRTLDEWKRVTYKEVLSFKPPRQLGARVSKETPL
UniProt Q13188, sequence (whole entry, looked up): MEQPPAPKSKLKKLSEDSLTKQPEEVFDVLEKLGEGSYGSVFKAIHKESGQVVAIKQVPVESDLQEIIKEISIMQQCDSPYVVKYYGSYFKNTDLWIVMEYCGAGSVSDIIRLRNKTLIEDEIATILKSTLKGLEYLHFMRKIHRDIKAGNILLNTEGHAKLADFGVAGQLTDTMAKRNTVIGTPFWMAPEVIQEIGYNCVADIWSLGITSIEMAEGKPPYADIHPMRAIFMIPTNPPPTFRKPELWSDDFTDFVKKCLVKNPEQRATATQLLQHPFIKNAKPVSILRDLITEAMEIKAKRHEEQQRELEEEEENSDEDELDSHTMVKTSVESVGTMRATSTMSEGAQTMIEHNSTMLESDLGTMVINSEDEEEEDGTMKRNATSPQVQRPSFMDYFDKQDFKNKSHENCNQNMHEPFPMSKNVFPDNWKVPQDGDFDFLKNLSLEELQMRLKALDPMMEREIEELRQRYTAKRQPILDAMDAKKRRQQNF

Block 1
SMILES: CC(C)n1cnc(-c2ccc(F)cc2)c1-c1ncc(C(=O)Nc2ccc(N3CCN(C)CC3)cc2)[nH]1
Method: phase 2a trial
Species: idiopathic pulmonary fibrosis patients
| setting | patients with cholecystitis [%] |
| --- | --- |
| dose not given, adverse event grade 1, all dose arms pooled | 0 |
| dose not given, adverse event grade 5, all dose arms pooled | 0 |
| 60 mg once daily, adverse event grade 4 | 0 |

Block 2
Structure (SMILES): COc1cc(C(=O)N2CCC(N3CCN(C)CC3)CC2)ccc1Nc1ncc2c(n1)N(C)c1ccccc1C(=O)N2C
Tested at: 1 µM
| target | assay | system | setting | inhibition [%] |
| --- | --- | --- | --- | --- |
| LCK human | KiNativ profiling | human PBMC | activation loop site, together with: ATP acyl phosphate probe | 9.6 |
| eEF2K (mouse) | probe labelling, inhibitor, KiNativ ActivX ATP probe | mouse brain lysate | ATP loop peptide YIkYNSNSGFVR | -9 |
| CaMK1b (mouse) | probe labelling, KiNativ, refers to: Lys1 site peptide | brain tissue lysate (mouse) | together with: ADP acyl-phosphate probe | -5 |

Block 3
Compound: CCS(=O)(=O)c1cc2cc(C[C@@](O)(CC(C)(C)c3ccc(F)cc3C(N)=O)C(F)(F)F)[nH]c2cn1
Tested at: 1 µM
| target | assay | remaining binding [%] |
| --- | --- | --- |
| STK3 (Homo sapiens, UniProt Q13188) | cell-free assay, competition with immobilised ligand | 100 |
| MAP4K4 (Homo sapiens, UniProt O95819) | cell-free assay, competition with immobilised ligand | 85 |
| CDK9 (Homo sapiens, UniProt P50750) | cell-free assay, competition with immobilised ligand | 78 |
| RAF1 (Homo sapiens, UniProt P04049) | cell-free assay, competition with immobilised ligand | 81 |
| DDR1 (Homo sapiens, UniProt Q08345) | cell-free assay, competition with immobilised ligand | 100 |
| TNNI3K (Homo sapiens, UniProt Q59H18) | cell-free assay, competition with immobilised ligand | 100 |
| FYN (Homo sapiens, UniProt P06241) | cell-free assay, competition with immobilised ligand | 100 |
| AAK1 (Homo sapiens, UniProt Q2M2I8) | binding | 100 |

Block 4
Target: Histone acetyltransferase KAT6A, winged helix 1, GST fusion (KAT6A, Homo sapiens, UniProt Q92794, residues 1-85)
Method: protein binding microarray
Form: double-stranded DNA, one strand shown
Sample: in vitro
Tested at: not given
Setting: 8-mer, flanks averaged, mean of 2 arrays, mostly near background
Relative to: not given
Reading: higher = stronger binding
Target sequence (chain): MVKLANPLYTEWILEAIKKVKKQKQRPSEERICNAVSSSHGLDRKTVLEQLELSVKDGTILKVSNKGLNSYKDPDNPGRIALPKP
| Strand | E-score |
| --- | --- |
| CTGGATCA | -0.116 |
| CCCTATAC | -0.0795 |
| AAATCTAC | -0.0884 |
| CCCCAGAC | -0.195 |
| AGCGCCGG | 0.44 |
| AACGAATC | -0.0914 |
| CGGAAAGC | 0.245 |
| CCCGTAGA | 0.231 |

Mixed results
| Structure (SMILES) | target | assay | measurement | result |
| --- | --- | --- | --- | --- |
| Cc1nc(-c2ccccc2)c(-c2ccncc2)o1 | Mitogen-activated protein kinase 12 (MAPK12, Homo sapiens, UniProt P53778) | enzyme activity, inhibitor, radiometric | IC50 | > 30 µM |
